Measured values from different studies.
Protocols differ between the studies behind these lines. ± marks the error that the study gave.
rep papain-like protease: Replicase polyprotein 1ab, papain-like protease (rep, Severe acute respiratory syndrome-related coronavirus, UniProt P0C6X7)
HLA class I histocompatibility antigen, A alpha chain allele A*11:01: HLA class I histocompatibility antigen, A alpha chain, allele A*11:01 (Homo sapiens, UniProt P04439)
Polyprotein P1234 nsP2 protease domain: Polyprotein P1234, nsP2 protease domain (Chikungunya virus, UniProt Q5XXP4)
Sequence of UniProt Q5XXP4 (whole entry, looked up): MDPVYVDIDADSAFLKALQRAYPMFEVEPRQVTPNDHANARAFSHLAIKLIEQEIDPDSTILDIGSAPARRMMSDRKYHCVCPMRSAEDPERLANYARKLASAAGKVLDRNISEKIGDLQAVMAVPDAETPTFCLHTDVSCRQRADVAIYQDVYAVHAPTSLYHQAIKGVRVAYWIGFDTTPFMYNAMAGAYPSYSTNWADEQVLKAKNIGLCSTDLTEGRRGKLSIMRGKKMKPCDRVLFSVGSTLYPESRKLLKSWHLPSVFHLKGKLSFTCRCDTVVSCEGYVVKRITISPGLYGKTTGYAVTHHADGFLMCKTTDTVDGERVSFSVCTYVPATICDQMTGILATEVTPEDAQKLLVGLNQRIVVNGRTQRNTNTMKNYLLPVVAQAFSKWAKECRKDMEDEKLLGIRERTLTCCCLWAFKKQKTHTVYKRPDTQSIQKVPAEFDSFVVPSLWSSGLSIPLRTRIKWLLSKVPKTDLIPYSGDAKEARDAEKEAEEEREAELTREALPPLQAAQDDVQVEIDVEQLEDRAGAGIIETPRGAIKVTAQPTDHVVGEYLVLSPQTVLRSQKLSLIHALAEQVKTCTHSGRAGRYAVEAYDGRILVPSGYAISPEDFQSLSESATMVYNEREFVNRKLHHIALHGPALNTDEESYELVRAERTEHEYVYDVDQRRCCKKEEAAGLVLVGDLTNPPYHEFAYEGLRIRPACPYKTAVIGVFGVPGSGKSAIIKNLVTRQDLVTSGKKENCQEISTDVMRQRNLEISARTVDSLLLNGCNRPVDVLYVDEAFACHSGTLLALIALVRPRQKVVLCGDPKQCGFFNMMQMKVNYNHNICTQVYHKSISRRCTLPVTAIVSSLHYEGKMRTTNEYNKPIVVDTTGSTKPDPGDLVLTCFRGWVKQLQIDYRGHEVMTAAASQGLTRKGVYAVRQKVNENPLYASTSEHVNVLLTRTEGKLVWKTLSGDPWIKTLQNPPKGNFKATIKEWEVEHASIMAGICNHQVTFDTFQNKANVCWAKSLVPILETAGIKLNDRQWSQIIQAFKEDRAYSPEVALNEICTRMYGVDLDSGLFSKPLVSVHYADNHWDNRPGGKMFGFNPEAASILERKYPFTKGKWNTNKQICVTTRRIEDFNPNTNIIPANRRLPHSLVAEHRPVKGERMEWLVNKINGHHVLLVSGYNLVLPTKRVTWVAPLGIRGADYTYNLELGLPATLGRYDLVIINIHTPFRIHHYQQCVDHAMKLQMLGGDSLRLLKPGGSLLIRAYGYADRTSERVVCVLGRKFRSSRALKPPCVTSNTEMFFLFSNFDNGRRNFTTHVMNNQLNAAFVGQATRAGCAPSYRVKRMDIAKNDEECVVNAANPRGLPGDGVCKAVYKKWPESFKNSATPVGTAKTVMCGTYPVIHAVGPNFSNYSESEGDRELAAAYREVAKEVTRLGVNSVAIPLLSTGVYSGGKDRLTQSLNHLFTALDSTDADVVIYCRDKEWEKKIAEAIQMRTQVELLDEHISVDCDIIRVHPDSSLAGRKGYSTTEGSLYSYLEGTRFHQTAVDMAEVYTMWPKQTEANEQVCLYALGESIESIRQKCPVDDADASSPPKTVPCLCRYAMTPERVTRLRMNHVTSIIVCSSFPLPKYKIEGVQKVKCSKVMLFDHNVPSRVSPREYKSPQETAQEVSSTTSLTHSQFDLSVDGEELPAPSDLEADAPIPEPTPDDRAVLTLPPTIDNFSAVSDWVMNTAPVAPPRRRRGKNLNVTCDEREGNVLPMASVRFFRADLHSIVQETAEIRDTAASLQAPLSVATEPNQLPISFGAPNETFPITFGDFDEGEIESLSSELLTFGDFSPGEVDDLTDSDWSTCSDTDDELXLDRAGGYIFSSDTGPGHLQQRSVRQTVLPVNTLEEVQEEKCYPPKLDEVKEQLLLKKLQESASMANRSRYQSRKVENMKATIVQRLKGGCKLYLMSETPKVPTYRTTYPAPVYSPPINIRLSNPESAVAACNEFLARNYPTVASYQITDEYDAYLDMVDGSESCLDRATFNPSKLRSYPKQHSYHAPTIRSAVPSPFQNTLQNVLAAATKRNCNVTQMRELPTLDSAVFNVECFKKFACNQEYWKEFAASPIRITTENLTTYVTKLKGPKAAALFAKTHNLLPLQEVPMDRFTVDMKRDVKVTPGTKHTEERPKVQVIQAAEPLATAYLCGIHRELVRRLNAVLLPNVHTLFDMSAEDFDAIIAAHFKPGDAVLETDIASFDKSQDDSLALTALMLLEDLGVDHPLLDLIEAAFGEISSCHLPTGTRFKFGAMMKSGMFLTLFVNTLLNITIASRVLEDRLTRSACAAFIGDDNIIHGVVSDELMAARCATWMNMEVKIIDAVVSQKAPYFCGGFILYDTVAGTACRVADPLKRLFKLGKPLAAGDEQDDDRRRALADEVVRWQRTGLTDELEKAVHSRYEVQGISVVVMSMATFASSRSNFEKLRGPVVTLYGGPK
nanI: Sialidase (nanI, Clostridium perfringens, UniProt A0A0H2YQR1)
Sequence of UniProt A0A7H0DNC1 (whole entry, looked up): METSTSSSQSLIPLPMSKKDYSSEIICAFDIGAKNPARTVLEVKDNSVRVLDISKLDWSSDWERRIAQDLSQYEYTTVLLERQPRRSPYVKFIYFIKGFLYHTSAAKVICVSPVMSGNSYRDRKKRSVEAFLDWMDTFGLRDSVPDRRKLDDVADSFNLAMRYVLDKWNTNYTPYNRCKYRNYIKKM
Sequence of UniProt Q8JUX6 (whole entry, looked up): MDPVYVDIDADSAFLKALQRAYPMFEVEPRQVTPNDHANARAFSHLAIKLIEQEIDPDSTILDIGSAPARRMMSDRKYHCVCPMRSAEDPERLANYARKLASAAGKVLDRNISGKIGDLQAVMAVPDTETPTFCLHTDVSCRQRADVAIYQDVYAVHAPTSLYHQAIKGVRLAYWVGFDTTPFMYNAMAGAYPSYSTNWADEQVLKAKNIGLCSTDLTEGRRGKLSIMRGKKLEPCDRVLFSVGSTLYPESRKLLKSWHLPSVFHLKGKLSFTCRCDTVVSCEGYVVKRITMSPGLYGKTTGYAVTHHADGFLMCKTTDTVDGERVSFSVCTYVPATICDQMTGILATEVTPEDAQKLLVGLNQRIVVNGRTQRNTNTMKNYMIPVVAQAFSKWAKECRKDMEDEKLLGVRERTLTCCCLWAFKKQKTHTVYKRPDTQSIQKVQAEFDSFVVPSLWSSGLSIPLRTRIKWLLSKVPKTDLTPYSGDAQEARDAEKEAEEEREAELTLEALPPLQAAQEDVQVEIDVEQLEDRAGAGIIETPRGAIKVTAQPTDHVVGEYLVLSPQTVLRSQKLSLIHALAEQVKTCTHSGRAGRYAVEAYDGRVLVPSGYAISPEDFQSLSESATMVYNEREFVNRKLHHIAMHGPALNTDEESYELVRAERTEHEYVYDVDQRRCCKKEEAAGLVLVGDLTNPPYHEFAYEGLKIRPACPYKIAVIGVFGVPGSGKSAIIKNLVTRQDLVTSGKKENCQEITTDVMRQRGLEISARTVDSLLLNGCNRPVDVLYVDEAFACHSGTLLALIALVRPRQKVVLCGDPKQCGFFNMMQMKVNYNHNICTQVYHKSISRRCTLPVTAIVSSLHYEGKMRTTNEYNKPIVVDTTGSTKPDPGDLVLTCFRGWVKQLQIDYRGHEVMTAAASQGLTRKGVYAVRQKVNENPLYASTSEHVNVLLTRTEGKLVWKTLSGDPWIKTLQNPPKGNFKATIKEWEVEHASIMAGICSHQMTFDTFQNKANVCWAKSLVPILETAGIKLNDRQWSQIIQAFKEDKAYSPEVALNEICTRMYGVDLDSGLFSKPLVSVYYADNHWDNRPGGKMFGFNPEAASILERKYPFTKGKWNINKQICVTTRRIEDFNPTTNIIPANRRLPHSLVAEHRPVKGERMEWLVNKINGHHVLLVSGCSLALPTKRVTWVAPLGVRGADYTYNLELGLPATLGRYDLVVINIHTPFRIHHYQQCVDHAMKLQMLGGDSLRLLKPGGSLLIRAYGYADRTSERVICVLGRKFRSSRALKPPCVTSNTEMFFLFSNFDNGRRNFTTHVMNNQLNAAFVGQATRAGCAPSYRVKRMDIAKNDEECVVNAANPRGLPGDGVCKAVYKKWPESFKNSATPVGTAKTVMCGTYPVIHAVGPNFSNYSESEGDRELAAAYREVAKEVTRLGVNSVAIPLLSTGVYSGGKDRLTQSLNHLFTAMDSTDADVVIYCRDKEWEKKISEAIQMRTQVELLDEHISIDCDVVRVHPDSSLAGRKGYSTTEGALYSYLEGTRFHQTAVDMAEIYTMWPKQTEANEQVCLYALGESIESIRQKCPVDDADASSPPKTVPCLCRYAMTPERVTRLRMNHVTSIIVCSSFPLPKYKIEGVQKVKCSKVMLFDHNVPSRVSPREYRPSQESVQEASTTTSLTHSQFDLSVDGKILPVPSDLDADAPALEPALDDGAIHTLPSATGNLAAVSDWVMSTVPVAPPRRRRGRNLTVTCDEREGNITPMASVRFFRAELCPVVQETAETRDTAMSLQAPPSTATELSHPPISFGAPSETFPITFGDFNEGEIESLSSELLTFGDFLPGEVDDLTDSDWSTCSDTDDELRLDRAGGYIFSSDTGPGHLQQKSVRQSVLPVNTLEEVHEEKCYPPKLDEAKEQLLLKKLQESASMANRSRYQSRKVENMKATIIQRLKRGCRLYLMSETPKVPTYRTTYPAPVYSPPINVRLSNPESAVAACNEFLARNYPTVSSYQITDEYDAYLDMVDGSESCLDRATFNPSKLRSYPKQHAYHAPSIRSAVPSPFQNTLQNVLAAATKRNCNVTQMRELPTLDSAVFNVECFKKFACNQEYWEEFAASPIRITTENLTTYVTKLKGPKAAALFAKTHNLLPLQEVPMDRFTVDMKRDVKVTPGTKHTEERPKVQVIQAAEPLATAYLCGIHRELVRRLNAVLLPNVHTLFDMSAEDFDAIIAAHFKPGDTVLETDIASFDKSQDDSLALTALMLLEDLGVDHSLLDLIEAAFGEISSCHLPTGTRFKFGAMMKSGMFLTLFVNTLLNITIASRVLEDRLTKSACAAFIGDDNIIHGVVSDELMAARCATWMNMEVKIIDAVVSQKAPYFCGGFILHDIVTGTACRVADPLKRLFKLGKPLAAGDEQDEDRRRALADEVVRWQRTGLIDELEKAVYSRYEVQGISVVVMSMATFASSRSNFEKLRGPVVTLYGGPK

Compound	tested on	assay	system	setting	quantity	value
CC(=O)O[C@@H]1[C@H](N)[C@@H](OP(=O)(O)O)[C@@]2(C(=O)O)CS[C@@](O)(C(N)=O)[C@@H]1O2	DNA-directed RNA polymerase subunit beta' / DNA-directed RNA polymerase subunit beta (rpoC/rpoB, Escherichia coli, UniProt P0A8T7+P0A8V2)	binding to elongation complex, 6-MI fluorescence titration	wild-type RNAP	riboside RNA 3′-end Guanine	Kd	180 ± 50 nM
C[C@@H](O)[C@H](NC(=O)[C@H](CC(N)=O)NC(=O)[C@H](CC(N)=O)NC(=O)[C@@H](N)Cc1ccccc1)C(=O)N[C@@H](CCCCN)C(=O)N[C@@H](Cc1ccccc1)C(=O)N[C@@H](CC(=O)O)C(=O)N[C@@H](Cc1ccc(O)cc1)C(=O)N[C@@H](Cc1ccc(O)cc1)C(=O)O	HLA class I histocompatibility antigen, A alpha chain, allele A*01:01 (Homo sapiens, UniProt P04439)	biochemical			IC50	> 10000 nM
CCC(C(=O)Nc1cc(NC2CCNC2)ccc1C)n1cc(F)cc2nc(SCc3ccc(F)cc3)nc1-2 (centres unmarked)	rep papain-like protease	enzyme activity			IC50	223 ± 84 nM
CC(C)C[C@H](NC(=O)[C@H](Cc1ccccc1)NC(=O)[C@H](CO)NC(=O)[C@H](CC(=O)O)NC(=O)[C@H](CCCCN)NC(=O)[C@H](Cc1ccccc1)NC(=O)[C@@H](NC(=O)[C@H](C)N)C(C)C)C(=O)N[C@@H](CCCNC(=N)N)C(=O)N[C@@H](CCCCN)C(=O)O	HLA class I histocompatibility antigen, A alpha chain allele A*11:01	biochemical			IC50	6.1 nM
CC(=O)N[C@H]1[C@H]([C@H](O)[C@H](O)CO)OC(C(=O)O)=C[C@@H]1N=C(N)N	neuraminidase (Influenza A virus, UniProt A0A088CBR8)			concentration not given	IC50	0.61 nM
CC[C@H](C)[C@H](NC(=O)[C@H](C)NC(=O)CNC(=O)[C@H](CO)NC(=O)[C@H](CO)NC(=O)[C@@H](NC(=O)[C@@H](N)C(C)C)[C@@H](C)O)C(=O)N[C@@H](Cc1ccc(O)cc1)C(=O)N[C@@H](CCCCN)C(=O)O	HLA class I histocompatibility antigen, A alpha chain allele A*11:01	biochemical			IC50	3.1 nM
C=CS(=O)(=O)CCC(=O)Nc1cccc(Cl)c1-n1cccn1	Polyprotein P1234 nsP2 protease domain	protease activity, inhibitor, FRET		90 min, 30 min preincubation	IC50	16000 ± 2000 nM
O=C(CO)N[C@H]1[C@H]([C@H](O)[C@H](O)CO)O[C@](O)(C(=O)O)C[C@@H]1O	Spike glycoprotein, with ACE2 (Severe acute respiratory syndrome coronavirus 2, UniProt P0DTC2)	binding to human ACE2, inhibitor	SARS-CoV-2		IC50	1.7 nM
C=C(C)[C@@H]1CCC(C)=C[C@H]1c1c(O)cc(CCCCC)cc1O	Scn10a (Mus musculus, UniProt Q6QIY3)	ion current, inhibitor, patch clamp			IC50	~2000 nM
C=CC(=O)Nc1cccc(C(C)(C)C(=O)O)c1	Polyprotein P1234 nsP2 protease domain	protease activity, inhibitor, FRET		90 min, 30 min preincubation	IC50	> 200000 nM
CCCC(C(=O)Nc1cc(NC2CCNCC2)ccc1C)n1cccc2nc(SCc3ccc(F)cc3)nc1-2 (centres unmarked)	rep papain-like protease	enzyme activity			IC50	968 ± 189 nM
Cc1ccc(NC(=O)c2c(Nc3ccccc3)[nH]c(=O)n(O)c2=O)cc1	Resolvase OPG149 (OPG149, Vaccinia virus, UniProt Q80HV3)				IC50	706 nM
CC[C@H](C)[C@H](NC(=O)[C@H](CC(C)C)NC(=O)[C@H](Cc1c[nH]c2ccccc12)NC(=O)[C@H](CCC(N)=O)NC(=O)[C@@H](NC(=O)[C@H](Cc1ccccc1)NC(=O)[C@H](C)NC(=O)[C@H](CCCCNC(=O)COCCOCCNC(=O)COCCOCCNC(=O)CC[C@H](NC(=O)CCCCCCCCCCCCCCCCCCC(=O)O)C(=O)O)NC(=O)[C@H](CCC(N)=O)NC(=O)[C@H](C)NC(=O)[C@@H](NC(=O)[C@H](CCCCN)NC(=O)[C@H](CC(=O)O)NC(=O)[C@H](CC(C)C)NC(=O)C(C)(C)NC(=O)[C@@H](NC(=O)[C@H](CO)NC(=O)[C@H](Cc1ccc(O)cc1)NC(=O)[C@H](CC(=O)O)NC(=O)[C@H](CO)NC(=O)[C@@H](NC(=O)[C@H](Cc1ccccc1)NC(=O)[C@@H](NC(=O)CNC(=O)[C@H](CCC(=O)O)NC(=O)C(C)(C)NC(=O)[C@@H](N)Cc1ccc(O)cc1)[C@@H](C)O)[C@@H](C)O)[C@@H](C)CC)[C@@H](C)CC)C(C)C)C(=O)N[C@@H](C)C(=O)NCC(=O)NCC(=O)N1CCC[C@H]1C(=O)N[C@@H](CO)C(=O)N[C@@H](CO)C(=O)NCC(=O)N[C@@H](C)C(=O)N1CCC[C@H]1C(=O)N1CCC[C@H]1C(=O)N1CCC[C@H]1C(=O)N[C@@H](CO)C(N)=O			healthy human	0.25 mg, single ascending dose	treatment-emergent adverse events	16.7%
CC(C)[C@H](NC(=O)[C@@H](NC(=O)[C@H](CC(=O)O)NC(=O)[C@H](CO)NC(=O)[C@@H](N)CCC(N)=O)[C@@H](C)O)C(=O)N[C@@H](Cc1ccccc1)C(=O)N[C@@H](CC(=O)O)C(=O)N[C@@H](Cc1ccc(O)cc1)C(=O)N[C@@H](Cc1ccc(O)cc1)C(=O)O	HLA class I histocompatibility antigen, A alpha chain, allele A*30:02 (Homo sapiens, UniProt P04439)	biochemical			IC50	322 nM
CC(C)CNC(=O)N[C@H]1[C@H]([C@H](O)[C@H](O)CO)OC(C(=O)O)=C[C@@H]1O	nanI	enzyme activity, inhibitor			IC50	> 500000 nM
CS(=O)(=O)C=CCNC(=O)CCc1nnc(-c2ccccc2)o1	Polyprotein P1234 nsP2 protease domain	enzyme activity, inhibitor, FRET		90 min, 30 min preincubation	IC50	8400 ± 1500 nM
CCC(C(=O)Nc1cc(NC2CNC2)ccc1C)n1cc(F)cc2nc(SCc3ccc(F)cc3)nc1-2 (centres unmarked)	rep papain-like protease	enzyme activity			IC50	213 ± 30 nM
CC(C)C[C@H](NC(=O)[C@H](Cc1ccc(O)cc1)NC(=O)[C@H](CC(=O)O)NC(=O)[C@@H](NC(=O)[C@H](CCCCN)NC(=O)[C@H](Cc1ccc(O)cc1)NC(=O)[C@H](CO)NC(=O)[C@H](CC(C)C)NC(=O)[C@@H](N)C(C)C)C(C)C)C(=O)O	HLA class I histocompatibility antigen, B alpha chain, allele B*08:01 (Homo sapiens, UniProt P01889)	biochemical			IC50	445 nM
Cn1cnc(Cn2c(=O)[nH]/c(=N\c3cc4cn(C)nc4cc3Cl)n(Cc3cc(F)c(F)cc3F)c2=O)n1	Cytochrome P450 2B6 (CYP2B6, Homo sapiens, UniProt P20813)	inhibitor	human liver microsomes	0 min preincubation, together with: efavirenz 5 µM	IC50	> 100000 nM
CC(C)[C@H](NC(=O)[C@H](CCC(N)=O)NC(=O)[C@@H](N)CC(N)=O)C(=O)N[C@@H](CCCCN)C(=O)N[C@@H](Cc1ccccc1)C(=O)N[C@@H](Cc1ccc(O)cc1)C(=O)N[C@@H](Cc1ccccc1)C(=O)N[C@@H](CC(N)=O)C(=O)N[C@@H](CCCCN)C(=O)O	HLA class I histocompatibility antigen, A alpha chain (Homo sapiens, UniProt P04439)	biochemical			IC50	2.2 nM
C=CC(=O)N1CC(C(=O)O)OC(C)(C)C1 (centres unmarked)	Polyprotein P1234 nsP2 protease domain	protease activity, inhibitor, FRET		90 min, 30 min preincubation	IC50	140000 ± 52000 nM

Compound	tested on	assay	system	setting	quantity	value
Cn1cnc(Cn2c(=O)[nH]/c(=N\c3cc4cn(C)nc4cc3Cl)n(Cc3cc(F)c(F)cc3F)c2=O)n1			human, normal renal function	oral, 375 mg	treatment-related TEAE, Severe severity	0%
CCC(CC)[C@H](NC(C)=O)[C@@H]1[C@H](O)[C@@H](C(=O)O)C[C@H]1N=C(N)N	Neuraminidase (Influenza A virus, UniProt L0MUX9)	enzyme activity, inhibitor	swine influenza A virus, H1N2		IC50	0.14 ± 0.03 nM
CCCCCCCCCCCCCCCC(=O)CP(=O)(O)O	Glycerol-3-phosphate acyltransferase 3 (plsY3, Bacillus anthracis, UniProt Q81Y92)	inhibitor			IC50	90000 nM
CCC(CC)O[C@@H]1C=C(C(=O)O)C[C@H](N)[C@H]1NC(C)=O	neuraminidase (Influenza A virus, UniProt A9YLD5)				IC50	0.65 nM
O=C(CCl)NCC#CC1CCCCO1 (centres unmarked)	Polyprotein P1234 nsP2 protease domain	enzyme activity, inhibitor, FRET		90 min, 30 min preincubation	IC50	1700 ± 100 nM
CC[C@H](C)[C@H](NC(=O)[C@@H](NC(=O)[C@H](CCCNC(=N)N)NC(=O)[C@H](CCSC)NC(=O)[C@H](CC(N)=O)NC(=O)[C@H](Cc1ccc(O)cc1)NC(=O)[C@@H]1CCCN1C(=O)[C@@H](N)C(C)C)C(C)C)C(=O)O	HLA class I histocompatibility antigen, B alpha chain (Homo sapiens, UniProt P01889)	binding, competitor			IC50	26700 nM
COc1ccc(-c2cccc(Nc3cc(=O)n(O)c(=O)n3C)c2)cc1	Resolvase OPG149 (OPG149, Monkeypox virus, UniProt A0A7H0DNC1)				IC50	242 nM
C=CS(=O)(=O)CCC(=O)Nc1ccn(-c2ccc(F)cn2)n1	Polyprotein P1234 nsP2 protease domain	protease activity, inhibitor, FRET		90 min, 30 min preincubation	IC50	9100 ± 600 nM
CCc1c(C(=O)C(N)=O)c2c(OCC(=O)O)cccc2n1Cc1ccccc1	Daboia russelii venom PLA2	enzyme activity, inhibitor		venom from West Bengal, together with: NOB substrate	IC50	298 nM
CCC(C(=O)Nc1cnn(C)c1)n1cccc2nc(SCc3ccc(F)cc3)nc1-2 (centres unmarked)	rep papain-like protease	enzyme activity			IC50	> 20000 nM
CC[C@H](C)[C@H](NC(=O)[C@H](C)NC(=O)CNC(=O)[C@H](CC(N)=O)NC(=O)[C@H](CCC(=O)O)NC(=O)[C@@H](N)CC(C)C)C(=O)N[C@@H](CCCNC(=N)N)C(=O)N[C@H](C(=O)N[C@@H](Cc1ccc(O)cc1)C(=O)O)[C@@H](C)CC	HLA class I histocompatibility antigen, B alpha chain, allele B*44:03 (Homo sapiens, UniProt P01889)	biochemical			IC50	3.3 nM
CCC(CC)O[C@@H]1C=C(C(=O)O)C[C@H](N)[C@H]1NC(C)=O	Neuraminidase (Influenza A virus, UniProt Q3M0T6)		human reference strains	mean	IC50	0.53 ± 0.02 nM
CCC(C(=O)Nc1ccccc1C)n1cccc2nc([S+]([O-])Cc3ccc(F)cc3)nc1-2 (centres unmarked)	rep papain-like protease	enzyme activity			IC50	15700 ± 1200 nM
C#Cc1cccc(N(Cc2ccco2)C(=O)CCl)c1	Polyprotein P1234 nsP2 protease domain	protease activity, inhibitor, FRET		90 min, 30 min preincubation	IC50	74000 ± 9000 nM
CCC(C(=O)Nc1cc(NC2CCOCC2)ccc1C)n1cc(Br)cc2nc(SCc3ccc(F)cc3)nc1-2 (centres unmarked)	rep papain-like protease	enzyme activity			IC50	487 ± 18 nM
Nc1ncnc2c([C@@H]3N[C@H](CO)[C@@H](O)[C@H]3O)c[nH]c12	Marburg virus	measured: viral RNA in supernatant	HeLa, Musoke	0.8 µM	inhibition of viral RNA	3.1%
CCC(C(=O)Nc1ccccn1)n1cccc2nc(SCc3ccc(F)cc3)nc1-2 (centres unmarked)	rep papain-like protease	enzyme activity			IC50	> 20000 nM
CCCCCCN[C@H]1[C@H]([C@H](O)[C@H](O)CO)OC(C(=O)O)=C[C@@H]1O	nanI	enzyme activity, inhibitor			IC50	> 500000 nM
O=C(N1CCC2(CC1)C[C@@H](CN1CCCCS1(=O)=O)CCO2)C1(c2cc(F)cc(F)c2)CCCC1	Polyprotein P1234, nsP2 (Chikungunya virus, UniProt Q8JUX6)	nsP2 RNA unwinding, inhibitor, FRET strand separation			IC50	56000 nM
CCC(C(=O)Nc1cc(NC2CCNC2)ccc1C)n1cccc2nc(SCc3ccc(F)cc3)nc1-2 (centres unmarked)	rep papain-like protease	enzyme activity			IC50	144 ± 37 nM

Excerpt of the above:
Compound	tested on	assay	system	setting	quantity	value
Nc1ncnc2c([C@@H]3N[C@H](CO)[C@@H](O)[C@H]3O)c[nH]c12	Marburg virus	measured: viral RNA in supernatant	HeLa, Musoke	0.8 µM	inhibition of viral RNA	3.1%
CCC(C(=O)Nc1ccccn1)n1cccc2nc(SCc3ccc(F)cc3)nc1-2 (centres unmarked)	rep papain-like protease	enzyme activity			IC50	> 20000 nM
CCCCCCN[C@H]1[C@H]([C@H](O)[C@H](O)CO)OC(C(=O)O)=C[C@@H]1O	nanI	enzyme activity, inhibitor			IC50	> 500000 nM
O=C(N1CCC2(CC1)C[C@@H](CN1CCCCS1(=O)=O)CCO2)C1(c2cc(F)cc(F)c2)CCCC1	Polyprotein P1234, nsP2 (Chikungunya virus, UniProt Q8JUX6)	nsP2 RNA unwinding, inhibitor, FRET strand separation			IC50	56000 nM
